Measured values gathered from unrelated publications.
Every numbered part comes from another study and shows a few of its results, in no order.

Study 1
Target: DNA polymerase theta, ATPase domain (POLQ, Homo sapiens, UniProt O75417)
UniProt O75417, sequence (whole entry, unmodified, looked up): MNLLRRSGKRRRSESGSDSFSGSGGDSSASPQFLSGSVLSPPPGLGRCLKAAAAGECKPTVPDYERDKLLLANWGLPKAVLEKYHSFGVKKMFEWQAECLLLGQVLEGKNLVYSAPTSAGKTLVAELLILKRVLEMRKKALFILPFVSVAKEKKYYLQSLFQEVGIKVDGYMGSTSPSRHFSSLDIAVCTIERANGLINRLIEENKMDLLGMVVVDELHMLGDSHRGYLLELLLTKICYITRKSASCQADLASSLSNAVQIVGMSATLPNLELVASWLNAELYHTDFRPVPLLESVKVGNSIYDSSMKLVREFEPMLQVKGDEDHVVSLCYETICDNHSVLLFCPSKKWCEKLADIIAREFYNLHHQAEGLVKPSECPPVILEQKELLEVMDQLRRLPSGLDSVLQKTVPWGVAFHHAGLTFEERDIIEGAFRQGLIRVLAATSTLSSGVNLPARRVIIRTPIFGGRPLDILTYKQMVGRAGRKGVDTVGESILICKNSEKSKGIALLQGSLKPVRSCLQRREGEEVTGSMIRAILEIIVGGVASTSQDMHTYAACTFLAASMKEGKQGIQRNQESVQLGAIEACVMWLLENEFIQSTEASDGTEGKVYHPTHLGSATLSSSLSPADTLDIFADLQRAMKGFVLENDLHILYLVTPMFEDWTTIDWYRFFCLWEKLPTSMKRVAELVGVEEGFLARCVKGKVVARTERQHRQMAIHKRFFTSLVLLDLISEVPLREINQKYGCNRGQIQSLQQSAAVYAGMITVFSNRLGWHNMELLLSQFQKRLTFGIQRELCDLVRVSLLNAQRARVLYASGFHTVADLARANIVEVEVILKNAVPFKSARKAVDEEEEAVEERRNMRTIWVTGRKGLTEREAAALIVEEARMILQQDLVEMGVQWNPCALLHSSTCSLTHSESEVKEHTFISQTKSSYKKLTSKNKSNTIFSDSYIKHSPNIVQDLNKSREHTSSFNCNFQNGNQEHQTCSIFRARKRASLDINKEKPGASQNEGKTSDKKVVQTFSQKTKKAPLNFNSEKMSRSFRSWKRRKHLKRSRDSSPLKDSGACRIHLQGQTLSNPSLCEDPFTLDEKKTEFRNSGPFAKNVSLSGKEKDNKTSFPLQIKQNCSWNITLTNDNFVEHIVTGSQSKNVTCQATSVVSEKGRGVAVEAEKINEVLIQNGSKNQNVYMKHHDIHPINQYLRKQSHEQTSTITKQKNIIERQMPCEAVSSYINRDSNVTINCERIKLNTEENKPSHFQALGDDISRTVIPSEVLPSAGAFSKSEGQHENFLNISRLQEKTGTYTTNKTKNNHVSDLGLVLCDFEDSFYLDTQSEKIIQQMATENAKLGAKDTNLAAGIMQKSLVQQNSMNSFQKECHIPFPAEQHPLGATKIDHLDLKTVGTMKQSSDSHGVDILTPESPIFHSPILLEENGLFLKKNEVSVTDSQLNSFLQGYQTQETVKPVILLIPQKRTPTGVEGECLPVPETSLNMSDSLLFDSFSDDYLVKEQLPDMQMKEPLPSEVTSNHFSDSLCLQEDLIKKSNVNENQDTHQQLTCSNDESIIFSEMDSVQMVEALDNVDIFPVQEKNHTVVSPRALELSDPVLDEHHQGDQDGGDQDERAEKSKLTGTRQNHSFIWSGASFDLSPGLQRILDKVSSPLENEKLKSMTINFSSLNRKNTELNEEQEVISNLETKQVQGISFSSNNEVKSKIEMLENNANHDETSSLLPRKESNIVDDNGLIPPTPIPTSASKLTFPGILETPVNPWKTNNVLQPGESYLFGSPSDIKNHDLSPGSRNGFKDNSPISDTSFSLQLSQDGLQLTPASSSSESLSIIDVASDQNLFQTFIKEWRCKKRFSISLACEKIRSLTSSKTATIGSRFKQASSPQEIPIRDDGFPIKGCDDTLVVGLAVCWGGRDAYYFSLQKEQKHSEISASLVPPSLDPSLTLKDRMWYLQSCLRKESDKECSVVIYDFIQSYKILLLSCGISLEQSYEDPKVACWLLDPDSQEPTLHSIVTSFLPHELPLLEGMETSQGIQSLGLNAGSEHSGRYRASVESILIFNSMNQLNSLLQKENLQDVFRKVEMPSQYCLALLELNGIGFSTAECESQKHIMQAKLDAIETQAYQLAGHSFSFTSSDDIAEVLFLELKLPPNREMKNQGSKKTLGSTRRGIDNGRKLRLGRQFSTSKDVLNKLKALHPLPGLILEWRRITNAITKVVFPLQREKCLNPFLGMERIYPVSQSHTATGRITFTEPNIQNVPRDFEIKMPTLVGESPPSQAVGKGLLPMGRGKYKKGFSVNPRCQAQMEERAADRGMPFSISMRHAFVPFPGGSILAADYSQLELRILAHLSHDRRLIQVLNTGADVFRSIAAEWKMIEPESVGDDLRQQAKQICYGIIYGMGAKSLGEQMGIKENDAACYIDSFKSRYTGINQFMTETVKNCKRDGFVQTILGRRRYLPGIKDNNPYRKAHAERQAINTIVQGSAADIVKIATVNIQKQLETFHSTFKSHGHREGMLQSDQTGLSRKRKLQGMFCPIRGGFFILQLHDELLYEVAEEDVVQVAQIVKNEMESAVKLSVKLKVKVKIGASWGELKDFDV
Read-out: enzyme activity
Mode: inhibitor
Tested at: 77 µM
Reference: untreated
Quantity: remaining activity
SMILES = O=c1oc2ccccc2c(O)c1Cc1c(O)c2ccccc2oc1=O; value = 98.8%
SMILES = O=C(NC(Cc1cc(=O)[nH]c2ccccc12)C(=O)O)c1ccc(Cl)cc1 (stereo not shown); value = 94.6%
SMILES = CN(C)CCCc1cc(C(=O)Nc2ccc(-c3ccncc3)cc2)ccc1O; value = 105%

Study 2
Cell line: normal-adjacent organoid sample E
Method: CellTiter-Glo
Tested at: 1 µM
Notes: replicate mean
Reference: DMSO
Quantity: viability
SMILES = O=C1CCc2cc(Nc3cc(OC4CCOCC4)c([N+](=O)[O-])cc3Cl)ccc2N1; value = 131%
SMILES = Cn1cnc2c(F)c(Nc3ccc(Br)cc3Cl)c(C(=O)NOCCO)cc21; value = 82.2%
SMILES = CC1=C(C#N)C(c2ccc3c(c2)c(NC(=O)c2ccccc2C)nn3C)C(C#N)=C(C)N1; value = 110%
SMILES = CC(=O)N1CCC(c2ccc(C(=O)NC3=NCCN3)cc2C(F)(F)F)CC1; value = 89.4%
SMILES = N#CC1(c2ccccn2)CCN(Cc2cc(C(=O)N3CCCC3)c(=O)n3ccccc23)CC1; value = 113%
SMILES = CCC(=O)N[C@@H]1CC[C@H](C(=O)N(C)c2ccc(-c3nc4ccccc4o3)cc2)C1; value = 84.6%
SMILES = C[C@H](c1ccnc(Nc2nc3ccc(-c4cc(N(C)C)ncn4)cc3[nH]2)c1)N1CCN(C(=O)CC(F)(F)F)CC1; value = 83.3%
SMILES = Cc1c(NC(=O)c2cc(C(N)=O)nc3cc(F)ccc23)c(C(F)(F)F)nn1Cc1ccc(C#N)cc1; value = 31.5%
SMILES = C[C@H](c1cccc(C#N)c1)n1cc(Cl)cc(C(N)=O)c1=N; value = 115%
SMILES = CN(C)[C@H]1CCN(c2cc(-c3ccccc3)nc3ccnn23)C1; value = 124%
SMILES = CCCCN(Cc1ccccc1)C(=O)c1ccc(S(=O)(=O)Nc2ccccc2)cc1; value = 173%
SMILES = CNC(=O)c1cc(C(=O)N[C@H]2[C@@H]3COC[C@@H]32)cc2c1O[C@H](CF)[C@H]2c1ccccc1; value = 90.6%
SMILES = CN1CCN(C(=O)C(C)(C)c2ccc(C(=O)Nc3cn4cc(-c5cc(C(C)(C)C)cc(C(C)(C)C)c5)ccc4n3)cc2)CC1; value = 132%
SMILES = Cn1cncc1[C@](O)(COc1ccc(C#N)cc1-c1ccc(OC(F)(F)F)cc1)c1ccc(C#N)cc1; value = 34%
SMILES = CC(C)(O)c1cncc(-c2nc3ccc(F)cc3n2C2CC2)c1; value = 105%
SMILES = Cc1nc(C2CCN(C(=O)c3ccc(OC(F)(F)F)cc3N)CC2)c2ncc(N3CCN(C)CC3)cc2n1; value = 114%
SMILES = O=C(NNS(=O)(=O)c1ccccc1)c1cc(-c2ccnnc2)ccc1F; value = 120%
SMILES = CNC(=O)c1ccccc1Nc1cc(Nc2ccc(N3CCOCC3)cc2OC)ncc1C(F)(F)F; value = 25.3%
SMILES = CN(c1ccnc(CNc2nc(Nc3ccc4c(c3)CC(=O)N4)ncc2C(F)(F)F)n1)S(C)(=O)=O; value = 117%
SMILES = Cn1nc(C(F)(F)F)cc1-c1cnc(N2CCc3cc(S(=O)(=O)Nc4c(F)cc(Cl)cc4F)cc(N4CCCC4=O)c32)nc1; value = 121%
SMILES = CN(C)C(=O)Cn1cc(-c2ccc(-c3cncc4ccccc34)cc2)cn1; value = 109%
SMILES = Cc1noc([C@H]2C[C@@H](c3ccc(C(F)(F)F)cc3)CN(C(=O)N3CCS(=O)(=O)C3)C2)n1; value = 113%
SMILES = O=C(O)c1ccc(-c2c[nH]c3ncc(-c4ccccc4)cc23)cc1C1CCCC1; value = 107%

Study 3
Target: Serine/threonine-protein kinase pim-1 (PIM1, Homo sapiens, UniProt P11309)
UniProt P11309, sequence (whole entry, looked up): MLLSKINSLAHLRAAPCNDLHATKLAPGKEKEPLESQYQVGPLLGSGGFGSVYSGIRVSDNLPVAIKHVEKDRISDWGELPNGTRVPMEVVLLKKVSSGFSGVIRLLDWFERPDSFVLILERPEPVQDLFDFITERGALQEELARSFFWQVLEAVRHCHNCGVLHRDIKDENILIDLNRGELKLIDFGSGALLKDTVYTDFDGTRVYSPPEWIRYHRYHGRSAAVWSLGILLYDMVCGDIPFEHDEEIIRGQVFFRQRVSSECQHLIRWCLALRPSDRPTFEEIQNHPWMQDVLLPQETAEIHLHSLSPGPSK
Read-out: enzyme activity
Mode: inhibitor
Tested at: 0.5 µM
Reference: control
Quantity: remaining activity
SMILES = Clc1ccc(Nc2nnc(Cc3ccncc3)c3ccccc23)cc1; value = 102%
SMILES = N#CC(c1ccnc(NCCc2cccnc2)n1)c1nc2ccccc2s1 (stereo not shown); value = 11.6%
SMILES = CC(C)n1cnc2c(Nc3cccc(Cl)c3)nc(NCCO)nc21; value = 93.9%
SMILES = FC(F)(F)c1ccc(/C=C/c2nc(COc3ccc(CCCCn4ccnn4)cc3)co2)cc1; value = 102%
SMILES = COc1cc2c(N3CCN(C(=O)Nc4ccc(OC(C)C)cc4)CC3)ncnc2cc1OCCCN1CCCCC1; value = 97.8%
SMILES = Nc1nc(Nc2ccc(S(N)(=O)=O)cc2)nn1C(=S)Nc1c(F)cccc1F; value = 90.7%
SMILES = c1cc(-c2cnn3cc(-c4ccc(OCCN5CCCCC5)cc4)cnc23)ccn1; value = 96.7%
SMILES = O=c1c(-c2ccc(F)cc2)c(-c2ccncc2)[nH]n1-c1ccc(Cl)cc1; value = 101%
SMILES = O=Nc1c(-c2c(O)[nH]c3ccccc23)[nH]c2ccccc12; value = 85.2%
SMILES = NC(=O)c1ccc(-c2nc(-c3ccc4c(c3)OCCO4)c(-c3ccccn3)[nH]2)cc1; value = 97.1%
SMILES = CC(C)(C)c1nc2c3cc[nH]c(=O)c3c3cc(F)ccc3c2[nH]1; value = 38.6%
SMILES = CC(C)N(CCC(=O)c1ccc2ccccc2c1)Cc1ccccc1; value = 100%
SMILES = CCCCc1c(-c2ccc(O)cc2)[nH]c2nccnc12; value = 83.8%
SMILES = NC(=O)c1cccc(-c2cc(Nc3ccc(OC(F)(F)F)cc3)ncn2)c1; value = 101%
SMILES = O=C(O)/C=C/c1cc(Br)c(Br)c(Br)c1Br; value = 16.2%

Study 4
Target: UBC/CDC34 (Homo sapiens, UniProt P0CG48+P49427)
UniProt P49427, sequence (whole entry, looked up): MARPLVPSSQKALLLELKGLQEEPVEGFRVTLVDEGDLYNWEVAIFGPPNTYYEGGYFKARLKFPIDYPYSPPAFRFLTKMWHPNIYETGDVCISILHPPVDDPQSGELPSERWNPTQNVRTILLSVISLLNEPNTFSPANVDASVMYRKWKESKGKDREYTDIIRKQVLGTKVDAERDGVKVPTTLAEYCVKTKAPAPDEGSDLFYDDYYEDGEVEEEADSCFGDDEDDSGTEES
Method: TR-FRET
Quantity: EC50
SMILES = CC(C)(C)OC(=O)N1CCC(Cc2ccc(-c3cc(Cl)cc(Cl)c3)cc2)(C(=O)O)CC1; value = > 100 µM
SMILES = CCOC(=O)C1(Cc2ccc(-c3cc(Cl)cc(Cl)c3)cc2)CCN(C(=O)OC)CC1; value = > 100 µM
SMILES = COCC(=O)N1CCC(Cc2ccc(-c3cc(Cl)cc(Cl)c3)cc2)(C(=O)NC[C@@H](C)O)CC1; value = > 100 µM
SMILES = COCC(=O)N1CCC(Cc2ccc(-c3cc(Cl)cc(Cl)c3)cc2)(c2nnc(C)o2)CC1; value = > 100 µM
SMILES = COCC(=O)N1CCC(Cc2ccc(-c3cc(Cl)cc(Cl)c3)cc2)(C(=O)N[C@@H]2CCOC2)CC1; value = > 100 µM
SMILES = CCCCCN1CCC(Cc2ccc(-c3cc(Cl)cc(Cl)c3)cc2)(C(=O)OCC)CC1; value = > 100 µM
SMILES = COCC(=O)N1CCC(Cc2ccc(-c3cc(Cl)cc(Cl)c3)cc2)(C(=O)O)CC1; value = > 100 µM
SMILES = COCC(=O)N1CCC(Cc2ccc(-c3cc(Cl)cc(Cl)c3)cc2)(NC(C)=O)CC1; value = > 100 µM

A few entries again (study 3):
SMILES = Nc1nc(Nc2ccc(S(N)(=O)=O)cc2)nn1C(=S)Nc1c(F)cccc1F; value = 90.7%
SMILES = c1cc(-c2cnn3cc(-c4ccc(OCCN5CCCCC5)cc4)cnc23)ccn1; value = 96.7%
SMILES = O=c1c(-c2ccc(F)cc2)c(-c2ccncc2)[nH]n1-c1ccc(Cl)cc1; value = 101%
SMILES = O=Nc1c(-c2c(O)[nH]c3ccccc23)[nH]c2ccccc12; value = 85.2%
SMILES = NC(=O)c1ccc(-c2nc(-c3ccc4c(c3)OCCO4)c(-c3ccccn3)[nH]2)cc1; value = 97.1%
SMILES = CC(C)(C)c1nc2c3cc[nH]c(=O)c3c3cc(F)ccc3c2[nH]1; value = 38.6%
SMILES = CC(C)N(CCC(=O)c1ccc2ccccc2c1)Cc1ccccc1; value = 100%
SMILES = CCCCc1c(-c2ccc(O)cc2)[nH]c2nccnc12; value = 83.8%
